Assay results collected from several papers.
Compare with care: the assays were run in different laboratories. Several values in a cell are separate wells, animals, samples, runs or records. ± gives the spread as reported.
Target: Acetylcholinesterase (ache, Electrophorus electricus, UniProt O42275)
Sequence of UniProt O42275 (whole entry, looked up): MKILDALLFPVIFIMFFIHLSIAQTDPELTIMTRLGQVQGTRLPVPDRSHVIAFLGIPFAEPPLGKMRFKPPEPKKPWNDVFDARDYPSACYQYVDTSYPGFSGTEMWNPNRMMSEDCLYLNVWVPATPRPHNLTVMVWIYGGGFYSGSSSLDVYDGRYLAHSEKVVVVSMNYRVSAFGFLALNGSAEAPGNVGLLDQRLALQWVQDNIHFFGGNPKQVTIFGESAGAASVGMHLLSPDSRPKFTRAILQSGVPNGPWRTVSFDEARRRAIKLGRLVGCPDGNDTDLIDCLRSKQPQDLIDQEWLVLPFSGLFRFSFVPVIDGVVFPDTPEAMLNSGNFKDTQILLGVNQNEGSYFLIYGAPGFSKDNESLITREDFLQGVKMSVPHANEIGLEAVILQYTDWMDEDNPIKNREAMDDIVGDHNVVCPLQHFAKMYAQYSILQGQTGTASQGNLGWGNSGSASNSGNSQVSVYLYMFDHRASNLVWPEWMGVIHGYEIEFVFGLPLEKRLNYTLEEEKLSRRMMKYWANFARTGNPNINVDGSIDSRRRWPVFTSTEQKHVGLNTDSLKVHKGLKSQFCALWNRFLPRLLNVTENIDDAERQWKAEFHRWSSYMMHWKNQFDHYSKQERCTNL
Effect on: enzyme activity
Action: inhibitor

Compound | assay | conditions | IC50
Ic1ccccc1/N=N/c1ccc2nc(-c3ccccc3)cc(-c3ccccc3)c2c1 | Ellman | pH 7.4 | 13.1 µM
O=C(CN1C(=O)c2ccccc2C1=O)Nc1ccc[n+](Cc2cccc(F)c2)c1 | Ellman | – | 2.9 µM
CC(=O)[C@H]1CC[C@H]2[C@@H]3CC=C4C[C@@H](O)CC[C@]4(C)[C@H]3CC[C@]12C | Ellman | – | 73.2 µM
O=CN1CCc2cc3c(c4c2C1Cc1ccccc1-4)OCO3 (single isomer, unassigned; (-)) | – | – | 140 µM
COc1cc2c(cc1OC)C(=O)C(C(=O)CC1CCN(Cc3ccccc3)CC1)C2 (stereo not drawn) | Ellman | – | 0.088 µM
COc1cc2c(cc1OC)C(=O)C1(C2)C(c2ccccc2)C(Cc2ccccc2)NC12C(=O)Nc1ccc(OC(F)(F)F)cc12 (stereo not drawn) | – | pH 8 | > 10 µM and 10.6 µM
COc1ccccc1/C=N/NC(=O)COc1ccc(Sc2ccc(OCC(=O)N/N=C/c3ccccc3OC)cc2)cc1 | – | – | 49.1 µM
COc1cc2c(cc1OC)C(=O)C1(C2)C(c2cccc([N+](=O)[O-])c2)C(Cc2c[nH]c3ccccc23)NC12C(=O)Nc1ccc(OC(F)(F)F)cc12 (stereo not drawn) | – | pH 8 | 2.54 ± 0.1 µM
Cn1c(=N)c2[nH]c(=O)n(C)c2n(C)c1=O | – | – | 24 µM
Cc1ccc(-c2nc3ccc(/N=N/c4ccc([N+](=O)[O-])cc4)cc3c(-c3ccccc3)c2I)cc1 | Ellman | pH 7.4 | 8.4 µM
O=C(COc1ccc(Sc2ccc(OCC(=O)N/N=C/c3ccccc3O)cc2)cc1)N/N=C/c1ccccc1O | – | – | 37.7 µM
COc1cc2c(cc1OC)C(=O)C1(C2)C(c2ccccc2C)C(Cc2ccccc2)NC12C(=O)Nc1ccc(OC(F)(F)F)cc12 (stereo not drawn) | – | pH 8 | > 10 µM and 12.5 µM
COc1ccc(C2N=C(SCCCSc3nnc(Cc4ccccc4Nc4c(Cl)cccc4Cl)n3-c3ccc(Cl)c(Cl)c3)NC(C)=C2C(C)=O)cc1 (stereo not drawn) | Ellman | – | 0.53 µM
COc1cc(O)cc(-c2cc3ccc(O)c(C/C=C(\C)CCC=C(C)C)c3o2)c1CC=C(C)C | – | – | > 200 µM
COc1cc(/C=N/NC(=O)COc2ccc(Sc3ccc(OCC(=O)N/N=C/c4ccc(O)c(OC)c4)cc3)cc2)ccc1O | – | – | 45.4 µM
COc1cc2c(cc1OC(C)=O)CCN1Cc3c(ccc(OC(C)=O)c3OC)C[C@@H]21 | – | – | 150 µM
COc1ccc(CNc2c(NC3CCN(Cc4ccccc4)CC3)c(=O)c2=O)cc1 | Ellman | – | 7 µM
C/C=C/c1ccc(OC(C)=O)c(OC)c1 | Ellman | pH 7.5 | 130 µM

Some of these lines once more:
Compound | assay | conditions | IC50
C/C=C/c1ccc(OC(C)=O)c(OC)c1 | Ellman | pH 7.5 | 130 µM
O=C(COc1ccc(Sc2ccc(OCC(=O)N/N=C/c3ccccc3O)cc2)cc1)N/N=C/c1ccccc1O | – | – | 37.7 µM
COc1cc(/C=N/NC(=O)COc2ccc(Sc3ccc(OCC(=O)N/N=C/c4ccc(O)c(OC)c4)cc3)cc2)ccc1O | – | – | 45.4 µM
